Experimental data collected from several papers.
A part holds a random share of what one study measured. Changes are numbered by the printed parent chain.

Set 1 — target: CCNA1, cyclin fold, Cln2 fusion (human); technique: yeast growth competition, sequencing; matrix: yeast; notes: weak parent motif; reference: not given; reading: higher = stronger binding
Starting sequence: ORC1 docking peptide (human); PRARKRLELGNLG; partner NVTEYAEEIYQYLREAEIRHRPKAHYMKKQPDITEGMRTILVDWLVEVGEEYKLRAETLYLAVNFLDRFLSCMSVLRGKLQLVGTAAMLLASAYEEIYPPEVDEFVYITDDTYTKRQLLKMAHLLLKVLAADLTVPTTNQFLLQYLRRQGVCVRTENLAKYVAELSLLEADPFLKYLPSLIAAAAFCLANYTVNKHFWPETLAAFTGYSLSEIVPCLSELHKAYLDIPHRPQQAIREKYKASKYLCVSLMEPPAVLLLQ
Change | normalised enrichment score
G13W | -0.0899
N11T | 0.46
R4H | 0.455
A3E | 0.507
E8G | 0.409
P1F | 0.264
L7V | -0.0674
R2F | 0.0848
N11M | 0.69
G13E | 0.569
G13I | -0.204
R6T | 0.477
R6H | 0.381

Set 2 — technique: DHFR PCA, deep sequencing; matrix: yeast; together with: (+)-ABA 0.032 µM; reference: wild-type fitted maximum; reading: higher = stronger binding
Target: ABI1, truncated, D143A, DHFR fusion (Arabidopsis thaliana)
Notes: methotrexate growth selection, single substitutions
Starting sequence: PYL1, truncated, DHFR fusion (Arabidopsis thaliana); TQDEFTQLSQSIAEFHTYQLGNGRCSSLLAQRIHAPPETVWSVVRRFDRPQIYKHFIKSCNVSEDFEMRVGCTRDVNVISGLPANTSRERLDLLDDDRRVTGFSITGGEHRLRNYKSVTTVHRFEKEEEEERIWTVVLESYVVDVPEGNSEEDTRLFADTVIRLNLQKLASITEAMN; partner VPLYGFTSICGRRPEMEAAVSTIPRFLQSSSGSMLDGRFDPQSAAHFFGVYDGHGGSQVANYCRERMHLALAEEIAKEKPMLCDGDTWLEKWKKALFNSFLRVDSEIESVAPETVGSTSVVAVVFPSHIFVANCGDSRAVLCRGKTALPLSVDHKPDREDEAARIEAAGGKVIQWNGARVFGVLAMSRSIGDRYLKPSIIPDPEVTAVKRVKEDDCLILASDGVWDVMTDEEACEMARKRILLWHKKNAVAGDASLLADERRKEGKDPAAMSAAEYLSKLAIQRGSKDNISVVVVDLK
Change | relative binding score
S27Q | 4.18%
S171K | 43.4%
D97C | 9.21%
C25W | 0.19%
T73W | 15.2%
E125V | 38.8%
S11D | 40%
D65C | 5.5%
C72P | 0.165%
R99N | 4.99%
N177C | 42.6%
L8G | 0.0261%
E89C | -9.28%
F157Q | 0.521%
S9F | 9.55%
S9T | 28.7%
K58V | -3.99%
A175H | 9.07%
Y53A | -0.0871%

Set 3 — technique: universal PBM; form: double-stranded DNA, one strand shown; matrix: in vitro; concentration: not given; reading: higher = stronger binding
Target: Sal-like protein 4, full length isoform B (SALL4, Homo sapiens, UniProt Q9UJQ4-2, residues 1-616)
Notes: 8-mer, flanks averaged, mean of replicates
Residues (chain): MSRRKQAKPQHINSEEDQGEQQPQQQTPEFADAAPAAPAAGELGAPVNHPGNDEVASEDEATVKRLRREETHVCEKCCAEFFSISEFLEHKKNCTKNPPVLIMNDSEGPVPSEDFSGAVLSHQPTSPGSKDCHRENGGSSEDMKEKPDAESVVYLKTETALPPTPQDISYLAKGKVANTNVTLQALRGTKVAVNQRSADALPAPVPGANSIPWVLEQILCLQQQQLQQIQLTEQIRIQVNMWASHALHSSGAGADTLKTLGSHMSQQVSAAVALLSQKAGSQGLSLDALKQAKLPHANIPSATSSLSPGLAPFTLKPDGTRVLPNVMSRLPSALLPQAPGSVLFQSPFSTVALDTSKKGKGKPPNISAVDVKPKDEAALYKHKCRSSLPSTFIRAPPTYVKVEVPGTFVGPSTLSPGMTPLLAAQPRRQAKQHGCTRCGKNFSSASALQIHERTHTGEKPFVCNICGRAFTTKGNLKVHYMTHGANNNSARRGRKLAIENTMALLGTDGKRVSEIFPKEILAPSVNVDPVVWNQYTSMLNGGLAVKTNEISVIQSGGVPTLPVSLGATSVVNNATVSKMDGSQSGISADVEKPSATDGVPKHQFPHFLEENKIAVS
Sequence | E-score
GACACAGC | -0.0591
GGGTGAGA | -0.187
AACGATGA | 0.048
AAGGCGTC | -0.134
GCGTTTCC | -0.175
ATGGACTA | 0.208
CTTATTTA | 0.25
CAACATGA | 0.146
CCATCGAG | -0.0933
CCTTATAA | 0.24
GCGATACA | 0.0801
CGATCTCC | -0.234
CCCTGATC | -0.218
CCAATCGA | -0.0524
GTATAAAC | 0.211
GTGTCTAA | 0.166
GCTTATCC | -0.0141
ATCTAGCC | -0.129
TAGTGATA | 0.207
ACACAAGC | -0.0703
ACACGCCG | -0.216
CCAACTAA | 0.0841
CTGACGTA | -0.132

Single results of other studies
Substance | target | test | system | conditions | how to read | measurement | result
PhoQ, residues 284 288 289 292 302 303 SLANIV | PhoP, residues 12 14 15 18 19 NQGLL (Escherichia coli, UniProt P23836) | Sort-seq, refers to: YFP reporter | E. coli | PhoQ-PhoP variant library, together with: 10 µM Mg2+ | reference: high Mg2+ state, higher = stronger signaling | fold induction | 2.32

Excerpt of the above (set 3):
Sequence | E-score
GCGATACA | 0.0801
CTGACGTA | -0.132
GCGTTTCC | -0.175
